Experimental data from different studies.
Parts stem from different laboratories: compare values within a part only.
UniProt P00519, sequence (whole entry, unmodified, looked up): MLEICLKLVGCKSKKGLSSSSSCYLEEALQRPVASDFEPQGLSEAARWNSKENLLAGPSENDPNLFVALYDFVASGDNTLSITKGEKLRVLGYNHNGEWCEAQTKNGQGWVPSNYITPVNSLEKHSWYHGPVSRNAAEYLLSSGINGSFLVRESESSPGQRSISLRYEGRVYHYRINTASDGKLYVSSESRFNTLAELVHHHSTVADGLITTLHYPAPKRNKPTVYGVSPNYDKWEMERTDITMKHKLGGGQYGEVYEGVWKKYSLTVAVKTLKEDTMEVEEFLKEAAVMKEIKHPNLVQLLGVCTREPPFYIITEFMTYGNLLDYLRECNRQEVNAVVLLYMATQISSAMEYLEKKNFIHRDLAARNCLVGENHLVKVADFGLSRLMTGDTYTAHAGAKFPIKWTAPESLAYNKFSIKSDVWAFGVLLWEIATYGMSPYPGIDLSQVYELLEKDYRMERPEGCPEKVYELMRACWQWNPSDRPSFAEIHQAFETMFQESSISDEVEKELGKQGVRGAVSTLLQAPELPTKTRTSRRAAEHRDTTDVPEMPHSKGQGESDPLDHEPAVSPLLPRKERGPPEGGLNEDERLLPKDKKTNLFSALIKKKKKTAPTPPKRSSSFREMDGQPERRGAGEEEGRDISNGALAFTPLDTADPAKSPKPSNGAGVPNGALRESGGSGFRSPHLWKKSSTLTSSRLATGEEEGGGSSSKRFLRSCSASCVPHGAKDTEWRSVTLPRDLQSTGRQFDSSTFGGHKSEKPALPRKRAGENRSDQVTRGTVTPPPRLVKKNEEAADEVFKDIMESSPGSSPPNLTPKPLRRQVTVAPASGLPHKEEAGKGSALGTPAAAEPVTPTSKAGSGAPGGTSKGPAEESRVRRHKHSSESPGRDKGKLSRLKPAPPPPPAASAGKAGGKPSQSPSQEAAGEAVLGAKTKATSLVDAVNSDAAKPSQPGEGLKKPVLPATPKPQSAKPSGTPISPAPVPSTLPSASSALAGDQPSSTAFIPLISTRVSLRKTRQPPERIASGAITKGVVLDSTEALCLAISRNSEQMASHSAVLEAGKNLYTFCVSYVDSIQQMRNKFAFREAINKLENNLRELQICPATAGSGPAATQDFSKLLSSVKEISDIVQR
UniProt P42336, sequence (whole entry, unmodified, looked up): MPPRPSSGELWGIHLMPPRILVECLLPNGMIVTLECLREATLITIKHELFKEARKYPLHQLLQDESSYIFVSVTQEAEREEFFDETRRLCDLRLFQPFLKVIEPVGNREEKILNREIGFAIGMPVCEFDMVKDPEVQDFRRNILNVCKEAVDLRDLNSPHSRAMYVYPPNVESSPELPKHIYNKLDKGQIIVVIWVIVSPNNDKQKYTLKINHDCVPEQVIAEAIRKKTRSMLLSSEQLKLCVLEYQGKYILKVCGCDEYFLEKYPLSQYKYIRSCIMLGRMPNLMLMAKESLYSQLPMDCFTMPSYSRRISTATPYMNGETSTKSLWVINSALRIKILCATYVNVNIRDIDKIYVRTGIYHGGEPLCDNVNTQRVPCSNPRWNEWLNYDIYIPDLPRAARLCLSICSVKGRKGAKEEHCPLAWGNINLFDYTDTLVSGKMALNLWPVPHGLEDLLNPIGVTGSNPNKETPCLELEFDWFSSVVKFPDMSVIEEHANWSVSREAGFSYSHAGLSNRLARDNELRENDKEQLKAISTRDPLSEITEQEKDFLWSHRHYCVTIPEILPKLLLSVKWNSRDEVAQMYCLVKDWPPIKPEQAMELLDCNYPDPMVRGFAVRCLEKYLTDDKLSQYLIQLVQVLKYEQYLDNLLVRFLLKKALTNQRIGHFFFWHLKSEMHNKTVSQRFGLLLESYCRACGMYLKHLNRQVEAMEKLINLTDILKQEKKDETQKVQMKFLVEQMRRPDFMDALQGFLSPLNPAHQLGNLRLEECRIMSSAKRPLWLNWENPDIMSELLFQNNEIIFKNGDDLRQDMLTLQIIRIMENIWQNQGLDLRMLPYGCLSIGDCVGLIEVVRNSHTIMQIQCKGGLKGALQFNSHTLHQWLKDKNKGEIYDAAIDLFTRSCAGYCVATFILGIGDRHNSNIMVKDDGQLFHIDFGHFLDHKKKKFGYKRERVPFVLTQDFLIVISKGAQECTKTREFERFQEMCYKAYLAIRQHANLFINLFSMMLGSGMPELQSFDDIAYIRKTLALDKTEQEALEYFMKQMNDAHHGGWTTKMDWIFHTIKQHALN
UniProt P53350, sequence (whole entry, looked up): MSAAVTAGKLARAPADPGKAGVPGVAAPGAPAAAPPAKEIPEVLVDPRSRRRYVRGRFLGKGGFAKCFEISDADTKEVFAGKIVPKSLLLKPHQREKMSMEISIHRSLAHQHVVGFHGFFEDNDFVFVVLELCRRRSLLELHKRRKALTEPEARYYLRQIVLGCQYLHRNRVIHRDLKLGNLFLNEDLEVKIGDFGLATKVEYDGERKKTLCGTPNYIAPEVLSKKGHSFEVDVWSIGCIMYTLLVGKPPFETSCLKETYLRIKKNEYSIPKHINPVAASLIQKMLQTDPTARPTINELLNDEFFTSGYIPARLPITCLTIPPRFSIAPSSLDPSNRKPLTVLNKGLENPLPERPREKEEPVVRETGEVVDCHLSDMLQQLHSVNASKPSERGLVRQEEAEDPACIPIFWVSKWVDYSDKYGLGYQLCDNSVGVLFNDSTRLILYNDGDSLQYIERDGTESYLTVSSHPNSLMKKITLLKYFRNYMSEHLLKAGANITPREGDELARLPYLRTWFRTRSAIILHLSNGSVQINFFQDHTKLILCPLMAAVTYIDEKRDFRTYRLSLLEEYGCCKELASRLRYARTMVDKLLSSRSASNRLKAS
UniProt P29322, sequence (whole entry, looked up): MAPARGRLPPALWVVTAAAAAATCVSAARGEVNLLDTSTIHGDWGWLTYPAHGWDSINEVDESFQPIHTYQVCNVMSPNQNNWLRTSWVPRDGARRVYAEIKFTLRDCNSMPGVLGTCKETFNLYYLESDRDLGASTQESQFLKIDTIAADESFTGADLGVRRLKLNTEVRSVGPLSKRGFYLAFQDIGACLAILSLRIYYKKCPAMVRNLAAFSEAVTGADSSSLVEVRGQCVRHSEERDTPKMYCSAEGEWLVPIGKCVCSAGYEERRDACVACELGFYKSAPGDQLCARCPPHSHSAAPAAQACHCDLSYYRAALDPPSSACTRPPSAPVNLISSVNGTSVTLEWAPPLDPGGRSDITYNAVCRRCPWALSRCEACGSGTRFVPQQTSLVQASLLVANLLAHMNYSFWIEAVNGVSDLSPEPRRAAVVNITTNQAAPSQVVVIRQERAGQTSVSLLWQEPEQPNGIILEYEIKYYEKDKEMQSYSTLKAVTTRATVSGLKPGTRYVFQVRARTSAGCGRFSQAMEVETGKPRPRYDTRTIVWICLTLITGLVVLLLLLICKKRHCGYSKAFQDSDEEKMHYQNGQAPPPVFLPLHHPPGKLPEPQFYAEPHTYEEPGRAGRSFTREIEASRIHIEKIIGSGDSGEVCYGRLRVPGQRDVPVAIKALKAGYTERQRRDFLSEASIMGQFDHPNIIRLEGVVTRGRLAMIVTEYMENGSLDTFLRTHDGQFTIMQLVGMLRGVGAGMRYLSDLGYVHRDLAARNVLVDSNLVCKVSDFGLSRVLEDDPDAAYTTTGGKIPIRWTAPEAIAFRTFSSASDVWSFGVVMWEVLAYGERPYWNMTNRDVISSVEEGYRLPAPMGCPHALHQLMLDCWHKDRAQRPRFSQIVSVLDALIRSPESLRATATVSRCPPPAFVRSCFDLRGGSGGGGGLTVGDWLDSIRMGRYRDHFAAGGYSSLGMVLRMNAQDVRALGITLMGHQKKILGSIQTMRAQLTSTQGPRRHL

Sample 1 — observed: enzyme activity; action: inhibitor; concentration: 0.5 µM; baseline: control
Target: Fibroblast growth factor receptor 1 (FGFR1, Homo sapiens, UniProt P11362)
UniProt P11362, sequence (whole entry, looked up): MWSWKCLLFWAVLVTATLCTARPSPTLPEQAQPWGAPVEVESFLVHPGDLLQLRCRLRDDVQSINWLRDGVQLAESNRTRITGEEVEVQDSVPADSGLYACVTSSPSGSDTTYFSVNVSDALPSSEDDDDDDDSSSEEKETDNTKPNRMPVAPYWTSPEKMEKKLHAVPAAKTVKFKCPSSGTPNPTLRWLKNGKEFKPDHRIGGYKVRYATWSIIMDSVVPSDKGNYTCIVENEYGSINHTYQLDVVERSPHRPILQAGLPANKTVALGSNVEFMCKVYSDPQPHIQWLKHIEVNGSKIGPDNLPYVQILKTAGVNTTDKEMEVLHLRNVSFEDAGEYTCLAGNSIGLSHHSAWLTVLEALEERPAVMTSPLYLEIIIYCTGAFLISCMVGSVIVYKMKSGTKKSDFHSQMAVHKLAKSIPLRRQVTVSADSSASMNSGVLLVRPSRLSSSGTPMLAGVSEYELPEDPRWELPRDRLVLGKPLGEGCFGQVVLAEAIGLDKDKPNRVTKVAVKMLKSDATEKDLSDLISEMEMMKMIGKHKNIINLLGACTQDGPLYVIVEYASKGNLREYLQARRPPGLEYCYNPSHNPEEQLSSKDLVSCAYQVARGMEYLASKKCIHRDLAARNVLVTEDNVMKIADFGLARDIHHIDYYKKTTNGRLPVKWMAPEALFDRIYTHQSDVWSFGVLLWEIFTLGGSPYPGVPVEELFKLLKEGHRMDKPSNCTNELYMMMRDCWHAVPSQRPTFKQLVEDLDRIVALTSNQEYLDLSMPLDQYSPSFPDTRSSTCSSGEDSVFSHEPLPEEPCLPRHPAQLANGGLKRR
Structure (SMILES)	remaining activity
OCC(O)CCON=C1C(c2c(O)[nH]c3ccccc23)=Nc2ccccc21 (stereo not drawn)	27.9%
O=c1c2ccccc2[nH]c(=S)n1CCN1CCC(=C(c2ccc(F)cc2)c2ccc(F)cc2)CC1	105%
NCCNc1ncc(C(N)=O)c(Nc2cccc(C(F)(F)F)c2)n1	90%
Nc1[nH]nc2nc3ccccc3nc12	93.9%
C#Cc1cccc(Nc2ncnc3cc(OCCOC)c(OCCOC)cc23)c1	99.1%
COc1ccc(CNC(=O)Nc2ncc([N+](=O)[O-])s2)cc1	98.9%
Cn1c2ccccc2c2c3c(c4c5ccccc5n(CCC#N)c4c21)CNC3=O	63.3%
COc1ccc(OC)c2c(=S)c3ccccc3[nH]c12	89.6%
CC(C)[C@H](CO)Nc1nc(Nc2cc(N)cc(Cl)c2)c2ncn(C(C)C)c2n1	76.7%
CO[C@H]1C[C@@H]2CC[C@@H](C)[C@@](O)(O2)C(=O)C(=O)N2CCCC[C@H]2C(=O)O[C@H]([C@H](C)C[C@@H]2CC[C@@H](O)[C@H](OC)C2)CC(=O)[C@H](C)/C=C(\C)[C@@H](O)[C@@H](OC)C(=O)[C@H](C)C[C@H](C)/C=C/C=C/C=C/1C	89.4%

Sample 2 — cell line: A-375; concentration: 100 µM; time: 18 h
Structure (SMILES)	viability [%]
O=C(/C=C/c1ccc(O)c2c1[C@H](C(=O)O[C@H](Cc1ccc(O)c(O)c1)C(=O)O)[C@@H](c1ccc(O)c(O)c1)O2)O[C@H](Cc1ccc(O)c(O)c1)C(=O)O	120
CCCSc1nc(N[C@@H]2C[C@H]2c2ccc(F)c(F)c2)c2nnn([C@@H]3C[C@H](OCCO)[C@@H](O)[C@H]3O)c2n1	8.55
O=C(O)C[C@H](O)C[C@H](O)/C=C/c1c(C2CC2)nc2ccccc2c1-c1ccc(F)cc1	84.7
O=C(Nc1ncc([N+](=O)[O-])s1)c1ccccc1O	56.7
OC1(c2ccc(Cl)c(C(F)(F)F)c2)CCN(CCCC(c2ccc(F)cc2)c2ccc(F)cc2)CC1	10.1
OC[C@H]1O[C@@H](c2ccc(Cl)c(Cc3ccc(O[C@H]4CCOC4)cc3)c2)[C@H](O)[C@@H](O)[C@@H]1O	100
CCN(CC)CCNC(=O)c1cc(Br)c(N)cc1OC	90.2
COCCOC(=O)C1=C(C)NC(C)=C(C(=O)OC/C=C/c2ccccc2)C1c1cccc([N+](=O)[O-])c1 (stereo not drawn)	51.9
CO[C@@H]1[C@@H](O[C@@H]2O[C@H](C)[C@@H](O[C@H]3C[C@@](C)(O)[C@@H](O)[C@H](C)O3)[C@H](N(C)C)[C@H]2O)[C@@H](CC=O)C[C@@H](C)[C@@H](O[C@H]2CC[C@H](N(C)C)[C@@H](C)O2)/C=C/C=C/C[C@@H](C)OC(=O)C[C@H]1OC(C)=O	79.6

Sample 3 — observed: cell-free assay; technique: competition with immobilised ligand; concentration: 1 µM
Structure (SMILES): CN(C)CC#Cc1ccc(OCCCc2sc(N3CCc4cccc(C(=O)Nc5nc6ccccc6s5)c4C3)nc2C(=O)O)c(F)c1
target	remaining binding
PIK3CA (Homo sapiens, UniProt P42336, E542K)	72%
MAP3K1 (Homo sapiens, UniProt Q13233)	100%
WNK3 (Homo sapiens, UniProt Q9BYP7)	100%
FGFR1 (Homo sapiens, UniProt P11362)	100%
Tyrosine-protein kinase ABL1, non-phosphorylated (ABL1, Homo sapiens, UniProt P00519, F317L)	100%
EPHA8 (Homo sapiens, UniProt P29322)	100%
STK10 (Homo sapiens, UniProt O94804)	100%
PLK1 (Homo sapiens, UniProt P53350)	100%
MAP3K15 (Homo sapiens, UniProt Q6ZN16)	99%

Sample 4 — action: agonist
Target: Beta-1 adrenergic receptor (ADRB1, Homo sapiens, UniProt P08588)
UniProt P08588, sequence (whole entry, looked up): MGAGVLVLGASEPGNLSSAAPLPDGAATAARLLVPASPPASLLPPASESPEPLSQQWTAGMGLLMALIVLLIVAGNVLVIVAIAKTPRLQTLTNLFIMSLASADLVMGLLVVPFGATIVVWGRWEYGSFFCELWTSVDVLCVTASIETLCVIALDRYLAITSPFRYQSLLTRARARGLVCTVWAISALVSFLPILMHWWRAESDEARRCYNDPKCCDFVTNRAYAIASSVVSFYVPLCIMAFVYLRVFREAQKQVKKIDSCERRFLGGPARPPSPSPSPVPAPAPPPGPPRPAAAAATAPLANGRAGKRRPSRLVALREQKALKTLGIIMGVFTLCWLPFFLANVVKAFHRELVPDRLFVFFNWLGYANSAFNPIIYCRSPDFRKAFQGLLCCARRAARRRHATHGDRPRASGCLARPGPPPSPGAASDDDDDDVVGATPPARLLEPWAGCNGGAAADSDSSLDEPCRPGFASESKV
Compound	EC50 [µM]
Cc1ccccc1-c1n[nH]c2ncc(-c3cccc(O)c3)nc12	≥ 100
Cc1noc2c(N3CCNC(=O)C3)cc(-c3cccc(C(F)(F)F)c3)nc12	≥ 100
O=C1Nc2ccc(I)cc2/C1=C/c1cc(Br)c(O)c(Br)c1	≥ 100
N[S+](=O)([O-])c1ccc(Cc2c(-c3ccc(F)c(C#Cc4ccc(CNCCOCCOCCNC(=O)COc5cccc6c5C(=O)N(C5CCC(=O)NC5=O)C6=O)s4)c3)nn(-c3nc(C(=O)O)cs3)c2CC2CC2)cc1F (stereo not drawn)	≥ 100
N#Cc1ccc(C(=O)Nc2ccc([C@@H](O)[C@H]3COCC(=O)N3Cc3ccc(F)cc3)cc2)cc1	≥ 100

Excerpt of the above (sample 1):
Structure (SMILES)	remaining activity
OCC(O)CCON=C1C(c2c(O)[nH]c3ccccc23)=Nc2ccccc21 (stereo not drawn)	27.9%
O=c1c2ccccc2[nH]c(=S)n1CCN1CCC(=C(c2ccc(F)cc2)c2ccc(F)cc2)CC1	105%
NCCNc1ncc(C(N)=O)c(Nc2cccc(C(F)(F)F)c2)n1	90%
Nc1[nH]nc2nc3ccccc3nc12	93.9%
